Experimental data pooled from the literature.
Numbers after ± are the reported error.
DRD4: D(4) dopamine receptor (DRD4, Homo sapiens, UniProt P21917)
Chain of UniProt P21917 (whole entry, looked up): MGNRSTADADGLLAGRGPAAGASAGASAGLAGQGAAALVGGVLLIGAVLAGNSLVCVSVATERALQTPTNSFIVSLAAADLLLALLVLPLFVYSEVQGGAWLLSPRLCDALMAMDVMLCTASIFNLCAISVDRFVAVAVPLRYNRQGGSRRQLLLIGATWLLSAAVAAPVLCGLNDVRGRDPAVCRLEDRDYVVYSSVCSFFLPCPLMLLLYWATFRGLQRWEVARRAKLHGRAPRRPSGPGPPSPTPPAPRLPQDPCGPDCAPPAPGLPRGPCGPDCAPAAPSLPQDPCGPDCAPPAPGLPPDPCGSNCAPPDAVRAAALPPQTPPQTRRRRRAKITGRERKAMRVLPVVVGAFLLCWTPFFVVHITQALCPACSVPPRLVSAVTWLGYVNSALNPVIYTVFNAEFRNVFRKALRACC
fimH lectin domain: Type 1 fimbrin D-mannose specific adhesin, lectin domain (fimH, Escherichia coli K-12, UniProt P08191)
Chain of UniProt Q92547 (whole entry, unmodified, looked up): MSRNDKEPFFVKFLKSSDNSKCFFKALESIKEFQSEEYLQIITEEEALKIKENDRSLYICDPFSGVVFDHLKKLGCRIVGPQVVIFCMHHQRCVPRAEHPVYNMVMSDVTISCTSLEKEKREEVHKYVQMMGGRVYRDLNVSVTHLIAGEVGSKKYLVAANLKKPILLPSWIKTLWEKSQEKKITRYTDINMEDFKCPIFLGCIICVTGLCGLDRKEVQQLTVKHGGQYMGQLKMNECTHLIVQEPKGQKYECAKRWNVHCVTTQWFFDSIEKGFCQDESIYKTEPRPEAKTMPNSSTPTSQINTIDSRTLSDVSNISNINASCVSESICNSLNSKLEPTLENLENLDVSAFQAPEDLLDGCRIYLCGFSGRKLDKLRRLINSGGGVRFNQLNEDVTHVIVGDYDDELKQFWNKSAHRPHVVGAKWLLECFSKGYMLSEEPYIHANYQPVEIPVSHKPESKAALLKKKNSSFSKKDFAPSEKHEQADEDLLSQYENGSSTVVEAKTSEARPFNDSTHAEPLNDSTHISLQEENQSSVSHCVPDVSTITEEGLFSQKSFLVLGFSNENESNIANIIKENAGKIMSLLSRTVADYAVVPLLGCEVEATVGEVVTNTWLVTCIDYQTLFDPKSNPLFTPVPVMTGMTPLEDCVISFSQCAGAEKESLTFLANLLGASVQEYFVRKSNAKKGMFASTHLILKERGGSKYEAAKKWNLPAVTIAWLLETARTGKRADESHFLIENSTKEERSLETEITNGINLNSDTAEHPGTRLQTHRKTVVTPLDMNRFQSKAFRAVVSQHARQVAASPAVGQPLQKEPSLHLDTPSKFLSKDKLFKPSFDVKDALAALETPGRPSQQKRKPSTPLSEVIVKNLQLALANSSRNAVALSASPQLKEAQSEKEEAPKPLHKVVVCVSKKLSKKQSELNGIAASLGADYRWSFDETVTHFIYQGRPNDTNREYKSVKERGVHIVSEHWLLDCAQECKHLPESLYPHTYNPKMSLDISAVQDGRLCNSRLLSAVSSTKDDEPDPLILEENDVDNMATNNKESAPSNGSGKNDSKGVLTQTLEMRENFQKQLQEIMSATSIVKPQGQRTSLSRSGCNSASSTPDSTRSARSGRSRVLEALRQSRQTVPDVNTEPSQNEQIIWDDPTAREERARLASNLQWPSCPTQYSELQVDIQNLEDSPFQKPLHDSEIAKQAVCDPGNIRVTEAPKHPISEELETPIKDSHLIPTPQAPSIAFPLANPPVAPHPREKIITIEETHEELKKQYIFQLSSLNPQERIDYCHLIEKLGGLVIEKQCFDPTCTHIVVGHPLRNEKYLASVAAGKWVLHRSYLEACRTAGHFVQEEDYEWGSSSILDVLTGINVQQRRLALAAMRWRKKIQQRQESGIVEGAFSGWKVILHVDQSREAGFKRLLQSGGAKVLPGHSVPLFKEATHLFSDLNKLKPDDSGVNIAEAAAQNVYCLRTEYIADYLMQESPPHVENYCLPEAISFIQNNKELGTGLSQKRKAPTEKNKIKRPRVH
Chain of UniProt P08191 (whole entry, looked up): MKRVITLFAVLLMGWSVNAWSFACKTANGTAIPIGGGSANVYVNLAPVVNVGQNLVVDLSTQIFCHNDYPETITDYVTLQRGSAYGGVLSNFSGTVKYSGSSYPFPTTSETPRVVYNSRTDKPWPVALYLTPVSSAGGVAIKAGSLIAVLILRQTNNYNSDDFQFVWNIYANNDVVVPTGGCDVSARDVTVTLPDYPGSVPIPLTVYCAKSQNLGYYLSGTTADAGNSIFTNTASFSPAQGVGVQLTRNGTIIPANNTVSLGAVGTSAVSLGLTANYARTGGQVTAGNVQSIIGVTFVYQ
Chain of UniProt Q8ILG2 (whole entry, looked up): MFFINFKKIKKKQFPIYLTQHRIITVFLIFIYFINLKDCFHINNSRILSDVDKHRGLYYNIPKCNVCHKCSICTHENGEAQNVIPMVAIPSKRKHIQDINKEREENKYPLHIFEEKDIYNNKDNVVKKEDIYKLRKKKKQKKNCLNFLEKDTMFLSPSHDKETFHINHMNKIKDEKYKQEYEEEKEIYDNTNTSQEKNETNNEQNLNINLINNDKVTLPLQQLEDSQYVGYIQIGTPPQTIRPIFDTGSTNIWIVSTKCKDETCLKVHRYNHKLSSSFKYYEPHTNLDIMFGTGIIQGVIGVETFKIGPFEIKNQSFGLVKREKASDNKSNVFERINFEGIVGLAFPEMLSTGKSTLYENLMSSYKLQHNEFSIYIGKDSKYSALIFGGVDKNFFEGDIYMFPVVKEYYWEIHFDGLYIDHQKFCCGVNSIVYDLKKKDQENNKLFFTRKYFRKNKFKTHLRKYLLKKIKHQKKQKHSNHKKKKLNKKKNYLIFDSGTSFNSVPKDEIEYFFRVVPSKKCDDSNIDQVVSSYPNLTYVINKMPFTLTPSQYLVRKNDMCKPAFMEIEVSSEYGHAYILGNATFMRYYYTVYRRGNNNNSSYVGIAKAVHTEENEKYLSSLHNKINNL
Chain of UniProt P07451 (whole entry, looked up): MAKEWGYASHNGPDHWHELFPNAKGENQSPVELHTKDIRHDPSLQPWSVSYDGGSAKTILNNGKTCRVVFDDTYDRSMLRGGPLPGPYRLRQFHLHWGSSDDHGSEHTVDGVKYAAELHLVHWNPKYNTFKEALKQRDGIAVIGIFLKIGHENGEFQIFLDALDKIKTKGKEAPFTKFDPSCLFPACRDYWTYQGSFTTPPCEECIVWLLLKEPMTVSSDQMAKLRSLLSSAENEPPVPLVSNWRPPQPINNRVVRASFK
Chain of UniProt P08238 (whole entry, looked up): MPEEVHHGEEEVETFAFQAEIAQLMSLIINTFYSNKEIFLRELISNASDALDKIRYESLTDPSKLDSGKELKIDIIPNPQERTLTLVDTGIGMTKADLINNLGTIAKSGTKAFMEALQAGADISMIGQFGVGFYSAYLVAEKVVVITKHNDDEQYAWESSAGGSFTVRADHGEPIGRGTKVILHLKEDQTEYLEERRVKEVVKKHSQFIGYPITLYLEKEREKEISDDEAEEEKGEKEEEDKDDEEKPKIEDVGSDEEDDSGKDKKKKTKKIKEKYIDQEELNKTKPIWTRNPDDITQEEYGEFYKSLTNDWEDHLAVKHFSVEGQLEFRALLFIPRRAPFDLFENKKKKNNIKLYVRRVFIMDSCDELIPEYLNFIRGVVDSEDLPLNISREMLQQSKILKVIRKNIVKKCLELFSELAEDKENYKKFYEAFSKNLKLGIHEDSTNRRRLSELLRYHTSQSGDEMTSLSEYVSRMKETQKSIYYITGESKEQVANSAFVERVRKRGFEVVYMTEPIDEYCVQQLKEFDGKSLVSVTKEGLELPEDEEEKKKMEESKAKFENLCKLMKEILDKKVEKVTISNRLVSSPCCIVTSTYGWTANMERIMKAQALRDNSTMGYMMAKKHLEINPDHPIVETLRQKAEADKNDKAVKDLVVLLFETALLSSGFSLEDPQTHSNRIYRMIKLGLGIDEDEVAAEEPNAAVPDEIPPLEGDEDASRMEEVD
Chain of UniProt Q9ULX7 (whole entry, looked up): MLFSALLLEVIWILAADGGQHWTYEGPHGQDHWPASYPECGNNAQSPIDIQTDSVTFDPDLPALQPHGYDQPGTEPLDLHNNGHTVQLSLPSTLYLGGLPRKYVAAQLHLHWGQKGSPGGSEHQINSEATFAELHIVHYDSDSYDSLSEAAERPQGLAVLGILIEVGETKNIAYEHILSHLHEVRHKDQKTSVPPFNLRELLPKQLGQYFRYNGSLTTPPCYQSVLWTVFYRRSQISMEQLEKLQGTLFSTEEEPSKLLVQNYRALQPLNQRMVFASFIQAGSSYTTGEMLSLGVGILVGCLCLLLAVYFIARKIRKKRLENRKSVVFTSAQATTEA
Chain of UniProt Q9HB29 (whole entry, looked up): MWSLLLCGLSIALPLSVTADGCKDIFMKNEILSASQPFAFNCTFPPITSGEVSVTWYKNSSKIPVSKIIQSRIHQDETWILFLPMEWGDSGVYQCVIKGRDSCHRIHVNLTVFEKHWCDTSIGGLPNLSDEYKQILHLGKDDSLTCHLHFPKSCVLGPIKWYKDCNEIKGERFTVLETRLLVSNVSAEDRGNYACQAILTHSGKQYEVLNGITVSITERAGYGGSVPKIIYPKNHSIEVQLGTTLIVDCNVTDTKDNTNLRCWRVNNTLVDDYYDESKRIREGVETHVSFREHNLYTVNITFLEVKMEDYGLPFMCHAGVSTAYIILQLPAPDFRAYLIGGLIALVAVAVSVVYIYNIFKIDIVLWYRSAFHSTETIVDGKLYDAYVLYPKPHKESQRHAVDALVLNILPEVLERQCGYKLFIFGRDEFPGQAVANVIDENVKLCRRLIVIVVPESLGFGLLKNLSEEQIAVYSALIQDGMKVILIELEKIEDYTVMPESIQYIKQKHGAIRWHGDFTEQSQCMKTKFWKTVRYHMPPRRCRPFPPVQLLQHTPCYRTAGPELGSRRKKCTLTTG
Chain of UniProt P62942 (whole entry, looked up): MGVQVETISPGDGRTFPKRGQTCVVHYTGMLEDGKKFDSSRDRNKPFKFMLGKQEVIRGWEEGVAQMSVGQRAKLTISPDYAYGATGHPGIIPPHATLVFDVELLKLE

For `Cn1ncc2cc(CN3CCC(F)(F)C(COc4ccc(F)c(F)c4)C3)ccc21` (stereo not drawn), the Ki was 10.8 nM (DRD4; ligand displacement, radioligand; cell membranes).
`O=C(O)Cc1ccccc1Nc1c(Cl)cccc1Cl` gave a Kd of 200000 nM (DNA topoisomerase 2-binding protein 1 (TOPBP1, Homo sapiens, UniProt Q92547); binding, NMR).
With `CC(C)C[C@@H]1NC(=O)[C@@H]2CSCCC(=O)N3CN(CN(C3)C(=O)CCSC[C@H](NC(=O)[C@H](CC(=O)O)NC(=O)[C@H](CCCCNC(=N)N)NC(=O)[C@H](C)NC(=O)CN(C)C(=O)CN(C)C(=O)CN(C)C(=O)CN(C)C(=O)CN(C)C(=O)CN(C)C(=O)CN(C)C(=O)CN(C)C(=O)CN(C)C(=O)CN(C)C(=O)CCN)C(=O)N3C[C@H](O)C[C@H]3C(=O)N[C@@H](CC(C)C)C(=O)N[C@@H](C(C)C)C(=O)N[C@@H](CC(N)=O)C(=O)N3CCC[C@H]3C(=O)N[C@@H](CC(C)C)C(=O)N2)C(=O)CCSC[C@@H](C(N)=O)NC(=O)[C@H](CCCCNC(=N)N)NC(=O)[C@H](Cc2c[nH]c3ccccc23)NC(=O)[C@@H](CC(=O)O)NC(=O)[C@@H]2CCCN2C(=O)[C@H](Cc2c[nH]cn2)NC1=O` the Kd was 1.7 nM (Ephrin type-A receptor 2 (EPHA2, Homo sapiens, UniProt P29317); binding, SPR).
For `CN(C)c1ccc(/C=C/c2cc(/C=C3\Sc4ccccc4N3CCCN3CCCC3)c3ccccc3[n+]2C)cc1`, the Kd was 13000 nM (Pu22 DNA; isothermal titration calorimetry; pH 7.4, 25 °C, 2% DMSO).
`CCC1(CC)CC(=O)N(C2c3cc(C(=O)NC4c5ccccc5CC4O)ccc3OC2(C)COC)C(=N)N1` (stereo not drawn) gave a Kd of over 0.01 nM (Plasmepsin IX (Plasmodium falciparum, UniProt Q8ILG2); binding, SPR).
`CCc1nc2cc3ccccc3cc2cc1C(=O)N1CCC[C@H]1C(=O)N[C@@H](CCC/C=C\CCC[C@H](NC(=O)[C@@H]1CCCN1C(=O)c1cc2cc3ccccc3cc2nc1CC)C(=O)N[C@@H](CCCCN)C(=O)NCCCN)C(=O)N[C@@H](CCCCN)C(=O)NCCCN` gave a Kd of 84.4 nM ((CUG)10 RNA; SPR).
The Kd of `NS(=O)(=O)c1cc(C(=O)NCCCC(=O)O)c(NC2CCCCC2)cc1Cl` is reported as over 200000 nM (Carbonic anhydrase 3 (CA3, Homo sapiens, UniProt P07451); pH 7).
`COC1CN([C@H]2CC[C@H]([C@@]3(C)Oc4c(Cl)cc(C(=O)NCc5c(SC)cc(C)[nH]c5=O)c(C)c4O3)CC2)C1`: “log2 fold change” 1.32 (RNA-seq, refers to: EXTL3; human, whole blood; dose not given, 24 h; baseline: pretreatment baseline).
`COc1ccc(CN2CC(COc3ccc(F)c(C)c3)CC(F)(F)C2)cc1F` (stereo not drawn) gave a Ki of 320 nM (DRD4; ligand displacement, radioligand; cell membranes).
With `CC(C)(C)n1cc(CN(Cc2cn(CC(=O)O)nn2)Cc2cn(C(C)(C)C)nn2)nn1` the Kd was 0.121 ± 0.0168 nM (copper(I); bicinchoninic acid competition).
For `Cc1c2ccnc(C(=O)N[C@H](C)CN(C)C)c2cc2c3cc(OCCCN4CCN(C)CC4)ccc3n(C)c12`, the Kd was 912 ± 328 nM (r(GGC)16 RNA; binding, microscale thermophoresis).
For `Cc1ncsc1-c1ccc(C(C)NC(=O)C2CC(O)CN2C(=O)C(NC(=O)CCCCCCCCCCN2CCCC(Nc3ncc(Cl)c(Nc4ccccc4S(=O)(=O)C(C)C)n3)C2)C(C)(C)C)cc1` (stereo not drawn), “log2 fold change” read -1.06 (22Rv1; RNA-seq, refers to: RPAP1 mRNA; concentration not given; baseline: DMSO).
The Kd of `Cc1c[nH]c2nccc(-c3ccc(C(=O)N[C@@H]4c5c(F)cc(C(F)F)cc5C[C@@H]4O)cn3)c12` is reported as 400 nM (Inhibitor of nuclear factor kappa-B kinase subunit beta (IKBKB, Homo sapiens, UniProt O14920); binding, competition with immobilised ligand).
`BODIPY-GTP` has a Kd of 450 ± 40 nM (GMP reductase (guaB1, Mycolicibacterium smegmatis, UniProt A0QYE8); fluorescence anisotropy; pH 6.6, 25 °C, without GMP).
For `O=C(CCc1ccc2n1[B-](F)(F)[N+]1=C(c3ccc[nH]3)C=CC1=C2)NCCCn1cc(COC[C@H]2CN(Cc3ccccn3)C(=O)[C@@H]3CCC[C@H]2N3S(=O)(=O)c2cc(Cl)cc(Cl)c2)nn1`, the Kd was 3 nM (Peptidyl-prolyl cis-trans isomerase FKBP1A (FKBP1A, Homo sapiens, UniProt P62942); binding, FP).
`O=C(O)CC12CC3CC(CC(C3)C1)C2` gave a Kd of over 400000 nM (DNA topoisomerase 2-binding protein 1, BRCT7-8 domains; R1407A (TOPBP1, Homo sapiens, UniProt Q92547, R1407A); NMR titration; not saturated).
For `O=c1c(-c2ccc(Cl)c(CN3CCOCC3)c2)coc2cc(O)ccc12`, the Kd was 1320 nM (3 beta-hydroxysteroid dehydrogenase/Delta 5-->4-isomerase type 1 (HSD3B1, Homo sapiens, UniProt P14060); binding, SPR).
For `N#Cc1cnc2sc(C(=O)O)cc2c1N1CCc2[nH]nc(C(=O)N[C@@H](CC(=O)NCCOCCN3CCOCC3)c3cccc(Br)c3)c2C1`, the Kd was 82 nM (Interleukin-1 receptor-like 2, D1-D3 domains (IL1RL2, Homo sapiens, UniProt Q9HB29); binding, surface plasmon resonance; IL-36R D1-D3 ectodomain).
`NCCCC[C@H](NC(=O)[C@H](C/C=C\C[C@H](NC(=O)[C@@H]1CCCN1)C(=O)N[C@@H](CCCCN)C(=O)NCCCN)NC(=O)[C@@H]1CCCN1)C(=O)NCCCN` gave a Kd of 263 nM ((CUG)10 RNA; SPR).
For `NNc1ccc(C(=O)N2CCN(C(=O)c3cc(Cc4n[nH]c(=O)c5ccccc45)ccc3F)CC2)cn1`, the Kd was 83.8 nM (Poly [ADP-ribose] polymerase 1 (PARP1, Homo sapiens, UniProt P09874); binding, SPR).
With `Cn1ncc2cc(-c3cncc(Cl)c3N3CCC4(CCNC4=O)CC3)ccc21` the Kd was 10800 nM (Cyclin-T1 (CCNT1, Homo sapiens, UniProt O60563); SILAC displacement; LS174T-L5 cell lysate).
The Kd of `CCc1nc2cc3ccccc3cc2cc1C(=O)N1CCC[C@H]1C(=O)N[C@@H](C/C=C\C[C@H](NC(=O)[C@@H]1CCCN1C(=O)c1cc2cc3ccccc3cc2nc1CC)C(=O)N[C@@H](CCCCN)C(=O)NCCCN)C(=O)N[C@@H](CCCCN)C(=O)NCCCN` is reported as 40 nM ((CUG)10 RNA; SPR).
`CCCCCCCO[C@H]1O[C@H](CO)[C@@H](O)[C@H](O)[C@@H]1O` gave a Kd of 29.1 nM (fimH lectin domain; binding, isothermal titration calorimetry; 25 °C, individual titrations).
For `COC(=O)CCCNC(=O)c1cc(S(N)(=O)=O)c(Cl)cc1NC1CCCCC1`, the Kd was 50 nM (Carbonic anhydrase 14 (CA14, Homo sapiens, UniProt Q9ULX7); pH 7).
For `C=CC(=O)N1CC2(CCN(c3nc(OC4CCN(CCCOC)CC4)nc4c(OCC(F)(F)F)c(-c5c(C)ccc6[nH]ncc56)c(C5CC5)cc34)CC2)C1`, the Kd was 822 ± 120 nM (GTPase KRas, GDP-bound (KRAS, Homo sapiens, UniProt P01116, Q61R); SPR).
The Kd of `CCc1nc2cc3ccccc3cc2cc1C(=O)N[C@@H](CCCCN)C(=O)N[C@@H](C/C=C/C[C@H](NC(=O)[C@H](CCCCN)NC(=O)c1cc2cc3ccccc3cc2nc1CC)C(=O)N1CCC[C@H]1C(=O)NCCCN)C(=O)N1CCC[C@H]1C(=O)NCCCN` is reported as 118 nM ((CUG)10 RNA; SPR).
The Kd of `CCCC[C@@H]1NC(=O)[C@H](Cc2ccc(O)cc2)NC(=O)[C@@H]2CCCN2C(=O)[C@H](CC(=O)O)NC(=O)[C@H](C)NC(=O)[C@H](Cc2ccccc2)NC(=O)[C@@H]2CSCCC(=O)N3CN(CN(C3)C(=O)CCSC[C@@H](C(=O)N[C@@H](C)C(N)=O)NC1=O)C(=O)CCSC[C@H](NC(C)=O)C(=O)N[C@@H](CC(C)(C)C)C(=O)N1CCC[C@H]1C(=O)N[C@@H](CCC(=O)O)C(=O)N[C@H](CCCCNC(=O)CCc1cn(CCOCCOCCOCCN(CCOCCOCCOCCC(=O)N[C@H]3CSCCC(=O)N4CN5CN(C4)C(=O)CCSC[C@H](NC(=O)[C@@H](CC(=O)O)NC(=O)[C@H](Cc4cccc6ccccc46)NC(=O)[C@@H]4CCCN4C3=O)C(=O)N[C@@H](CCSC)C(=O)N[C@@H](CCCCNC(=N)N)C(=O)N[C@@H](CC(=O)O)C(=O)N[C@@H](Cc3c[nH]c4ccccc34)C(=O)N[C@@H](CO)C(=O)N[C@@H]([C@@H](C)O)C(=O)N3CCC[C@H]3C(=O)N3C[C@H](O)C[C@H]3C(=O)N[C@@H](Cc3c[nH]c4ccccc34)C(=O)N[C@H](C(N)=O)CSCCC5=O)CCOCCOCCOCCn3cc(CCC(=O)NCCCC[C@H]4NC(=O)[C@H](CCC(=O)O)NC(=O)[C@@H]5CCCN5C(=O)[C@H](CC(C)(C)C)NC(=O)[C@@H](NC(C)=O)CSCCC(=O)N5CN6CN(C5)C(=O)CCSC[C@H](NC(=O)[C@H](Cc5ccc(O)cc5)NC(=O)[C@@H]5CCCN5C4=O)C(=O)N[C@@H](Cc4ccccc4)C(=O)N[C@@H](C)C(=O)N[C@@H](CC(=O)O)C(=O)N4CCC[C@H]4C(=O)N[C@@H](Cc4ccc(O)cc4)C(=O)N[C@@H](CCCC)C(=O)N[C@H](C(=O)N[C@@H](C)C(N)=O)CSCCC6=O)nn3)nn1)C(=O)N1CCC[C@H]1C(=O)N[C@@H](Cc1ccc(O)cc1)C(=O)N2` is reported as over 200 nM (Nectin-3 (NECTIN3, Homo sapiens, UniProt Q9NQS3); SPR).
`CNS(=O)(=O)Nc1nccc(Cc2c(C)c3ccc(Oc4ncccc4F)cc3oc2=O)c1F` gave an IC50 of 625 nM (HT115; cell viability; 7 days).
`CCCCCCCO[C@H]1CO[C@H](CO)[C@@H](O)[C@H](O)[C@@H]1O` has a Kd of 264 nM (fimH lectin domain; binding, isothermal titration calorimetry; 25 °C, global fit, two runs).
`CCCc1cc2cc(-n3nc(C4CC4(F)F)c4c3CC(C)(C)CC4=O)cc(N3CCC(O)CC3)c2c(=O)[nH]1` (racemic) gave a Kd of 1810 nM (Heat shock protein HSP 90-beta (HSP90AB1, Homo sapiens, UniProt P08238); fluorescence polarization; 24 h, 4 °C, added: FITC-geldanamycin tracer).

Excerpt of the above:
`COC1CN([C@H]2CC[C@H]([C@@]3(C)Oc4c(Cl)cc(C(=O)NCc5c(SC)cc(C)[nH]c5=O)c(C)c4O3)CC2)C1`: “log2 fold change” 1.32 (RNA-seq, refers to: EXTL3; human, whole blood; dose not given, 24 h; baseline: pretreatment baseline).
`BODIPY-GTP` has a Kd of 450 ± 40 nM (GMP reductase (guaB1, Mycolicibacterium smegmatis, UniProt A0QYE8); fluorescence anisotropy; pH 6.6, 25 °C, without GMP).
With `Cn1ncc2cc(-c3cncc(Cl)c3N3CCC4(CCNC4=O)CC3)ccc21` the Kd was 10800 nM (Cyclin-T1 (CCNT1, Homo sapiens, UniProt O60563); SILAC displacement; LS174T-L5 cell lysate).
For `COC(=O)CCCNC(=O)c1cc(S(N)(=O)=O)c(Cl)cc1NC1CCCCC1`, the Kd was 50 nM (Carbonic anhydrase 14 (CA14, Homo sapiens, UniProt Q9ULX7); pH 7).
